Measured values gathered from unrelated publications.
Numbered parts are unrelated; each lists some results of a single study. Substitutions count along the parent as printed.

Sample 1
Target: CREBZF, bZIP domain (human)
Method: DHFR protein complementation
Sample: yeast
Notes: single substitutions, most at no-binding floor
Baseline: wild-type JUN-FOS pair
Direction: higher = stronger binding
Starting sequence: JUN, bZIP domain (human); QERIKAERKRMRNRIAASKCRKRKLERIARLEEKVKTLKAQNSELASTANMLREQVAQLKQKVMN; partner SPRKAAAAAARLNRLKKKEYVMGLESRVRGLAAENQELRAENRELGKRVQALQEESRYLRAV
Substitution | binding fitness [natural log]
A57P | -1.51
A49D | -1.48
V35E | -1.47
I28S | -1.43
L31A | -1.42
Q41H | -1.42
K34D | -1.56
N42D | -1.45
A40P | -1.53
L31Q | -1.48
L52G | -1.5
A29V | -1.47
A29R | -1.4
E32G | -1.49
T37V | -1.51
K36L | -1.49
S47K | -1.56
A46F | -1.33

Sample 2
Target: RNA binding protein fox-1 homolog 2, RRM domain, GST-SBP tag (RBFOX2, Homo sapiens, UniProt O43251-10, residues 100-194)
Method: RNA Bind-n-Seq
Form: RNA
Sample: in vitro
Tested at: 365 nM
Notes: natural RNA segment, single round, ends assumed
Baseline: no-protein control
Direction: higher = stronger binding
Target sequence (chain): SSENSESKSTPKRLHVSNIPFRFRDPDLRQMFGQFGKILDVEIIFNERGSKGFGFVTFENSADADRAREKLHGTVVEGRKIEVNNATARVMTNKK
Strand | RBNS enrichment (R)
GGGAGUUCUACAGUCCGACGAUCUAGAGAUGUGUGCAGACUUGCUUAUUGUGGUUAGUGUGUAUCAGGAACACACACACAGGUGUUCUGACCAGCUCAGGCUUGCCACAGUGAGCAACUCUGUGGCUAGCAAAUGGAAUUCUCGGGUGCCAA | 0.666
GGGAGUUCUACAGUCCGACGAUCUAGUCCAGCAUCACGGAGAAAGGCCAAUCCUCUUAGGAGCAUUGGACAGCUCAACCAUGUUGUCAUCUUACCACCAGAGGGCACAGCAGCCCUCUAAGGGUUUUCUCCUCUGGAAUUCUCGGGUGCCAA | 0.218
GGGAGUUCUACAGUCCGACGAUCGGCUCCGGAGGGGACCCAGCUCCUCUGAGCCAUACCAACCAUCGUCCAGCCCUCCUGCACGGAUGCUGUUGCCGGCAGAGCACAGCCCACUGGGAUCACAGCAUUUCGGGUGGAAUUCUCGGGUGCCAA | 0.435
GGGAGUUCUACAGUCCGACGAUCACCUUAAUGCAAAAUCAAAAUUAUAAAAUAAAAUCAUUGACAUUGAUGGGUUUUUUUGCAUAUAAGCUAUAGGCCUCCCGCUUUAUUUCAUGAGGAGCCCAUAGGCAGGUUGGAAUUCUCGGGUGCCAA | 0.705
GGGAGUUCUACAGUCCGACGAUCUUUGAUAUGUAAGCUUGACCUAAAGUCAAAGGACCUGUGUAGCAUUUCAGAUUGAGCACUUCACUAUCAAAAAUACUAACAUCACAUGGCUUGAAGAGUAACCAUCAGAGUGGAAUUCUCGGGUGCCAA | 1.11
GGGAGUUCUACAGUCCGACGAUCUUUUAAAAAGUAUUGCCAAACAUUAAUGUUGAUUUCUAGUUAUUUAUUCUGGGAAUGUAUAGUAUUUGAAAACAGAAAUUGGUACCUUGCACACAUCAUCUGUAAGCUGUUGGAAUUCUCGGGUGCCAA | 0.676
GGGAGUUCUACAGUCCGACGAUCAGCUAUUGUCAGCUUCUCUAUUUCAAAAUGCAAUCAGCAUAUAACUAUAUUGAUAUUAGAAGAUAUUUGUUUUUUAAAAUAUAUUGAUGUAUGAUAAAGAUGAUCUAAUUUGGAAUUCUCGGGUGCCAA | 0.655
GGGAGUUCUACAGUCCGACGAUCUUCCUGGCCUGGCCAGAGCUGGAGCCCCCACAGGGUAAGGAAGAGAGAGUGGGAGGCAGAGUGUGAUGGGGAGGAGGGACAGGAAGACCCUUUUAAUGAUGAGGGUAACUUGGAAUUCUCGGGUGCCAA | 1.11
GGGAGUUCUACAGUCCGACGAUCUAAAUCACUGGUGAAAGUGGCAUCAUCAGAUAAUCUCAAUGGCCACUUGUUCUGGCAUUUAUAAAUAGAAAGGACUGUGAGCUGUGGGCUAUGGUCUAAUGUUCAAAGAUUGGAAUUCUCGGGUGCCAA | 0.558
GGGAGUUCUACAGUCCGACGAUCUAUCCUCCUAAAGACCUCCAAAGUUUUUAUGGAAGGGUAAAUACUGGUACCUUCCCCCAGCUUUCCAUCUGAGGACCAGAAAAGUUGUGUCUCCCUUAGAUGAGAUCUAGUGGAAUUCUCGGGUGCCAA | 0.251
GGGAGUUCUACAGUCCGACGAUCGCACCCCGCUCAAGUCUCCCACCCCUGGUGGACCUCUGACUCUGUUGCUUUUCUUUAAGUAAAGAUUACAUCUAUCUGGGUCGUGGUUUCUCUUUUGGUGGCAAACUUUUUGGAAUUCUCGGGUGCCAA | 0.365
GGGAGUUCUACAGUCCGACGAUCAAAAUACAAGCUAGUGCUUUGUCUUAGUAGUUUUAAGAAAUUAAAGCAAACAAAUUUAAGUUUUCUUGUAUUGAAAAUAACCUAUGAUUGUAUGUUUUGCAUUCCUAGAAUGGAAUUCUCGGGUGCCAA | 0.434

Sample 3
Target: Interferon regulatory factor 5, full length, phosphomimetic (IRF5, Homo sapiens, UniProt Q13568-2, residues 1-514, K96S/S451D/S453D/S456D/S462D)
Method: protein-binding microarray
Form: double-stranded DNA, one strand shown
Sample: in vitro
Tested at: 250 nM
Notes: 60-bp whole probe
With: salmon DNA 0.4 mg/ml
Baseline: random background probes
Direction: higher = stronger binding
Constant ends, left off below: GCCTAGCAC … GTCTTGATTCGCTTGACGCTGCTG
Strand | log fluorescence [z-score]
TTAGATATCAGTATCGAATAGTGCTAG | 3.8
GACGATCTCAGTCACGAGACGTGCTAG | -0.123
TCAATTTCTGTTTTTGCACTGTGCTAG | 4.88
AACGGTATCCTTTTCCTGACGTGCTAG | 0.6
GACGATATCGGGTTTCCAGACGTGCTA | 1.76
GACGGATTCGACTATCGGGACGTGCTA | 1.65
TTAGAAGTGGGGACTGGATTAGTGCTA | -0.416
GACGGTTTTGGGTATCGGGACGTGCTA | 1.28
GACGGTATCGGGTATCGGGTCGTGCTA | 3.95
GACGAACTGAGTCTAGAGACGTGCTAG | -0.471
ATTACTTTAGGTTCCCAGGTGTGCTAG | 0.00602
GACGATCTCAGTTCCGAGACGTGCTAG | -0.128
GACGGTATCGGGAATCGGGACGTGCTA | 1.44
TTAGGTGTCGGGTATCGGTTAGTGCTA | 3.19
TTTGGACTGGACTATCGGTTAGTGCTA | 5.77
GTTCTTTTCAGTCCCCTCTTGTGCTAG | 1.32
TAAATTTTGATGGAGAGTGCGTGCTAG | 0.249

Sample 4
Target: PABPC1L2, full length, GST fusion (mouse, UniProt A0ABA7IW68)
Method: RNAcompete
Form: RNA
Sample: in vitro
Tested at: 20 nM
Notes: 7-mer, probes averaged, single round
Baseline: mean of 7-mers
Direction: higher = stronger binding
Construct (chain): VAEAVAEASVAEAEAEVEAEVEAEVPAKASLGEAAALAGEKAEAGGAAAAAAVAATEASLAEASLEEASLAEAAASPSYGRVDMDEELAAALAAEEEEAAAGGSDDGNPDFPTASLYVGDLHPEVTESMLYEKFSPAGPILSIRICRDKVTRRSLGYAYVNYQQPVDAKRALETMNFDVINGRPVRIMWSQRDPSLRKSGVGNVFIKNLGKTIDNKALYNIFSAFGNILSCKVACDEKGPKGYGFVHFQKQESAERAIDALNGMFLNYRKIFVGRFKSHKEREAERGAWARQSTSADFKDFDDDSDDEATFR
Strand | 7-mer Z-score
CUCCAUU | -0.248
ACAGACA | 0.193
UGGGAGU | -0.0627
ACUGUCG | -0.277
GCUUACG | -0.253
UCCACGA | -0.249
GUAUGGC | -0.0953
AGAUGCC | -0.278
CCAUUAG | -0.335
CGACACU | -0.104
AAGUCCA | -0.0301
ACAUGCG | -0.106
ACAACGG | 0.195
AAGGCCC | -0.0391
UUCCGUU | -0.456
AACGCGU | 0.0189
AGACAGU | -0.24
UCAGUUA | -0.271
AGGCCUA | -0.153
CGAGAUC | -0.213
CUCCGUA | -0.269
AUAAGAA | 0.483
AACCCUC | 0.00254
GGAUAGG | 0.238
GGAUAAA | 1.78

Sample 5
Target: Histone acetyltransferase KAT6A, winged helix 2, GST fusion (KAT6A, Homo sapiens, UniProt Q92794, residues 85-181)
Method: protein binding microarray
Form: double-stranded DNA, one strand shown
Sample: in vitro
Tested at: not given
Notes: 8-mer, flanks averaged, mean of 2 arrays, mostly near background
Baseline: not given
Direction: higher = stronger binding
Construct (chain): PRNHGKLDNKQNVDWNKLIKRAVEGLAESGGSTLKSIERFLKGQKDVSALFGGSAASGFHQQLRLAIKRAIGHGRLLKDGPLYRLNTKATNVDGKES
Strand | E-score
CTGAATGA | 0.00456
ACTTCAGA | -0.0511
ATTTTTCA | 0.0117
CCGACCTC | 0.193
CGGCAACC | 0.129
CCACCAAG | -0.0967
GAAGCGGA | 0.0216
AGTTGGGA | 0.0255
CACATGAC | -0.232
CTGAGACC | -0.00991
AGCTCGGA | -0.0423
CCCACTAG | -0.0889
AGCACTAA | 0.00662
TAGCCGGA | 0.149
ATTTAGCC | 0.0271
GCGTTCAC | 0.0272
CCTTTACG | -0.135
AAAGTGTA | -0.265
GGCGTGGA | -0.0647
GCACCTAA | 0.0335
AGGCTTAC | -0.0656

For quick reference, copied from above (sample 2):
Strand | RBNS enrichment (R)
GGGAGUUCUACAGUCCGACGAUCAGCUAUUGUCAGCUUCUCUAUUUCAAAAUGCAAUCAGCAUAUAACUAUAUUGAUAUUAGAAGAUAUUUGUUUUUUAAAAUAUAUUGAUGUAUGAUAAAGAUGAUCUAAUUUGGAAUUCUCGGGUGCCAA | 0.655
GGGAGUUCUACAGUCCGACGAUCGGCUCCGGAGGGGACCCAGCUCCUCUGAGCCAUACCAACCAUCGUCCAGCCCUCCUGCACGGAUGCUGUUGCCGGCAGAGCACAGCCCACUGGGAUCACAGCAUUUCGGGUGGAAUUCUCGGGUGCCAA | 0.435
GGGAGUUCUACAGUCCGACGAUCAAAAUACAAGCUAGUGCUUUGUCUUAGUAGUUUUAAGAAAUUAAAGCAAACAAAUUUAAGUUUUCUUGUAUUGAAAAUAACCUAUGAUUGUAUGUUUUGCAUUCCUAGAAUGGAAUUCUCGGGUGCCAA | 0.434
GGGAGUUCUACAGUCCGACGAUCUUCCUGGCCUGGCCAGAGCUGGAGCCCCCACAGGGUAAGGAAGAGAGAGUGGGAGGCAGAGUGUGAUGGGGAGGAGGGACAGGAAGACCCUUUUAAUGAUGAGGGUAACUUGGAAUUCUCGGGUGCCAA | 1.11
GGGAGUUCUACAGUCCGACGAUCGCACCCCGCUCAAGUCUCCCACCCCUGGUGGACCUCUGACUCUGUUGCUUUUCUUUAAGUAAAGAUUACAUCUAUCUGGGUCGUGGUUUCUCUUUUGGUGGCAAACUUUUUGGAAUUCUCGGGUGCCAA | 0.365
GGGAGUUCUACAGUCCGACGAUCUAGAGAUGUGUGCAGACUUGCUUAUUGUGGUUAGUGUGUAUCAGGAACACACACACAGGUGUUCUGACCAGCUCAGGCUUGCCACAGUGAGCAACUCUGUGGCUAGCAAAUGGAAUUCUCGGGUGCCAA | 0.666
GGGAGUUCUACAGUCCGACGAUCUAAAUCACUGGUGAAAGUGGCAUCAUCAGAUAAUCUCAAUGGCCACUUGUUCUGGCAUUUAUAAAUAGAAAGGACUGUGAGCUGUGGGCUAUGGUCUAAUGUUCAAAGAUUGGAAUUCUCGGGUGCCAA | 0.558
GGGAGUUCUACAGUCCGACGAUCUUUGAUAUGUAAGCUUGACCUAAAGUCAAAGGACCUGUGUAGCAUUUCAGAUUGAGCACUUCACUAUCAAAAAUACUAACAUCACAUGGCUUGAAGAGUAACCAUCAGAGUGGAAUUCUCGGGUGCCAA | 1.11
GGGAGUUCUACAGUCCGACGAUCACCUUAAUGCAAAAUCAAAAUUAUAAAAUAAAAUCAUUGACAUUGAUGGGUUUUUUUGCAUAUAAGCUAUAGGCCUCCCGCUUUAUUUCAUGAGGAGCCCAUAGGCAGGUUGGAAUUCUCGGGUGCCAA | 0.705
